Assay results from different studies.
Every numbered part comes from another study and shows a few of its results, in no order.

Sample 1
Target: RNA binding protein fox-1 homolog 2, RRM domain, GST-SBP tag (RBFOX2, Homo sapiens, UniProt O43251-10, residues 100-194)
Method: RNA Bind-n-Seq
Molecule type: RNA
Sample: in vitro
Concentration: 365 nM
Notes: natural RNA segment, single round, ends assumed
Relative to: no-protein control
Reading: higher = stronger binding
| Sequence | RBNS enrichment (R) |
| --- | --- |
| GGGAGUUCUACAGUCCGACGAUCAGGGGCUGGGUCUGCUUCACCAAUCACCCAACCUGAGUCCCCCAGCUUUACCACAGAGCUGCCAACGUCCUUUCACUGUCUCCACACGAUGGCCCAGUAUCCUUGGUUGUUGGAAUUCUCGGGUGCCAA | 0.526 |
| GGGAGUUCUACAGUCCGACGAUCUGCCCUGUGCAUGAGGUCCCCUGAAGCCGCAAUACAUGACCACCCUUCUACUACUUGCUAUUACCUCCUUGUAUGAGAAAUGGAUUAAACUUCUAUGCCUAUGGUUGGUCUGGAAUUCUCGGGUGCCAA | 3.55 |
| GGGAGUUCUACAGUCCGACGAUCCGGGGGAGAUUCUGACUCUUAAUCUGUAUUGUGAGAAAAUCCCAGCAAGUUCCAUGAUAUUAAAUCCAGGUCUGCAUUGGCCCGGGGCAAGAGUUUAACAUCUUCGGCCCUGGAAUUCUCGGGUGCCAA | 1.27 |

Sample 2
Target: Ras GTPase-activating protein-binding protein 1, RRM domain (G3BP1, Homo sapiens, UniProt Q13283)
Sequence of UniProt Q13283 (whole entry, looked up): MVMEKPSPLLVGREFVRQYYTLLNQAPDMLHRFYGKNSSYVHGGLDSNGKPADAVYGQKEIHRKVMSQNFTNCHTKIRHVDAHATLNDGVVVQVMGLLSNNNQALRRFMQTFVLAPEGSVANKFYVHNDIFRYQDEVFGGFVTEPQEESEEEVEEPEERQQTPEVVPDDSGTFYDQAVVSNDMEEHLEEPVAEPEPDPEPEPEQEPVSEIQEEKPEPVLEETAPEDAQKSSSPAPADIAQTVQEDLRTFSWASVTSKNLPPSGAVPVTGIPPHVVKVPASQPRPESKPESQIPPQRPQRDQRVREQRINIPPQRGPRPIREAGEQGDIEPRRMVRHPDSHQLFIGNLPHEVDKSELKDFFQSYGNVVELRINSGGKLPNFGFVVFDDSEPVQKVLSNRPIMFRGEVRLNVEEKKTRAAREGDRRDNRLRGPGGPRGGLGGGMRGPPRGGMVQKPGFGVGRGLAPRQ
Method: RNA Bind-n-Seq
Molecule type: RNA
Sample: in vitro
Concentration: 1 µM
Notes: whole 134-nt RNA, ends assumed
Added: 150 mM KCl
Relative to: input library
Reading: higher = stronger binding
| Sequence | log2 enrichment |
| --- | --- |
| GGGAGUUCUACAGUCCGACGAUCAAGUCCUGUGCUACACAUCGUAUGUACCGAAUCGGGAAAAAAAGGGAAAGGGAGGGAAAGUAUUAUGUUACGCCGUUCGGAUCUGCACUUUGGAAUUCUCGGGUGUCAAGG | 0.836 |
| GGGAGUUCUACAGUCCGACGAUCAAGUCCUGUGCUACACAUCGUAUGUACCGAAUCGGGUGGGUUUUUUUGGGAAAGGGAAAGUAUUAUGUUACGCCGUUCGGAUCUGCACUUUGGAAUUCUCGGGUGUCAAGG | 0.722 |
| GGGAGUUCUACAGUCCGACGAUCUGGGAGGGGGAUUUUGUUUAUUUUUUUAGCUCAUUUCCAGGGGUGGGAAUUUUUUUUUAAUAUGUGUCAUGAAUAAAGUUGUUUUUGAAAUGGAAUUCUCGGGUGUCAAGG | 1.99 |

Sample 3
Target: Interferon regulatory factor 7, full length, phosphomimetic (IRF7, Homo sapiens, UniProt Q92985, residues 1-503, S471D/S472D/S475D/S476D/S477D/S483D/S484D/S487D)
Sequence of UniProt Q92985 (whole entry, unmodified, looked up): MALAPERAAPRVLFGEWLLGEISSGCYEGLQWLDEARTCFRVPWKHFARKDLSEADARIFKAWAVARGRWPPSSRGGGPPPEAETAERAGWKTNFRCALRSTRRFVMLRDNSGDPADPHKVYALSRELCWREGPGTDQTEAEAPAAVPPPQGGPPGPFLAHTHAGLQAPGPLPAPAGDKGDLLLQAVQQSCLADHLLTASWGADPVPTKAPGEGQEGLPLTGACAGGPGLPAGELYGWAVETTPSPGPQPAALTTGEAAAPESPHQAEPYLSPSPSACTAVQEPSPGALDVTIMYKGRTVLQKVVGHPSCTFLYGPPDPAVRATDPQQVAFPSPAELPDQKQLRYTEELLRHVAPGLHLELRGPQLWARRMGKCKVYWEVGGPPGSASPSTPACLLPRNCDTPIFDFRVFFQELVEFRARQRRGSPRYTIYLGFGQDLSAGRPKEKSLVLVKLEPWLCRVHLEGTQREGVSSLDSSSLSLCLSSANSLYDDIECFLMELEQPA
Method: protein-binding microarray
Molecule type: double-stranded DNA, one strand shown
Sample: in vitro
Concentration: 2200 nM top
Notes: 60-bp whole probe
Added: salmon DNA 0.4 mg/ml
Relative to: random background probes
Reading: higher = stronger binding
| Sequence | fitted relative affinity |
| --- | --- |
| GCCTAGCACTGAGGTTTCCTTTTCCTTTAGTGCTAGGTCTTGATTCGCTTGACGCTGCTG | 6.09 z-score |
| GCCTAGCACTCAATCATCCGTTTCTTACTGTGCTAGGTCTTGATTCGCTTGACGCTGCTG | 1.89 z-score |
| GCCTAGCACCTTTCTTTCCATACTGCAAGGTGCTAGGTCTTGATTCGCTTGACGCTGCTG | 4.1 z-score |

Further values, each from its own experiment
| Substance | target | test | system | conditions | scale | measurement | value |
| --- | --- | --- | --- | --- | --- | --- | --- |
| PhoQ, residues 284 288 289 292 302 303 TGYLSA | PhoP, residues 12 14 15 18 19 IQSYL (Escherichia coli, UniProt P23836) | Sort-seq, refers to: YFP reporter | E. coli | PhoQ-PhoP variant library, added: 10 µM Mg2+ | relative to: high Mg2+ state, higher = stronger signaling | fold induction | 5.16 |

Repeated from above (sample 3):
| Sequence | fitted relative affinity |
| --- | --- |
| GCCTAGCACTCAATCATCCGTTTCTTACTGTGCTAGGTCTTGATTCGCTTGACGCTGCTG | 1.89 z-score |
